Measurements pooled from the literature.
Compare with care: the assays were run in different laboratories. ≈ marks a conversion by molar mass, not a printed value.
Organism: Mycobacterium tuberculosis

CCOc1cc(C=NNC(N)=S)ccc1OC(=O)CN1C(=O)CSC1=O — MIC (Alamar blue; MDR 210): 72.3 to 167 µM (≈ 28.7 to 66.3 µg/mL)
CO[C@H]1/C=C/O[C@@]2(C)Oc3c(C)c(O)c4c(O)c(c(/C=N/N5CCN(C)CC5)c(O)c4c3C2=O)NC(=O)/C(C)=C\C=C\[C@H](C)[C@H](O)[C@@H](C)[C@@H](O)[C@@H](C)[C@H](OC(C)=O)[C@@H]1C — resistance mutation frequency (4 x MIC): 2.26e-06 mutants per cell
CO[C@H]1/C=C/O[C@@]2(C)Oc3c(C)c(O)c4c(O)c(c(/C=N/N5CCN(C)CC5)c(O)c4c3C2=O)NC(=O)/C(C)=C\C=C\[C@H](C)[C@H](O)[C@@H](C)[C@@H](O)[C@@H](C)[C@H](OC(C)=O)[C@@H]1C — MIC fold change (H37Rv inhA G96V mutant; concentration not given; relative to: wild type H37Rv): 1 fold
Cc1ccc(-c2cc(NCCc3ccc(C(F)(F)F)cc3)n3cnnc3n2)o1 — IC90 (bacterial growth): 7.9 µM
NNC(=O)c1ccncc1 — resistance mutation frequency (10 x MIC): 7.47e-06 mutants per cell
NC(=S)NN=Cc1ccc(OC(=O)CN2C(=O)CSC2=O)cc1 — MIC (Alamar blue; MDR 210): 45.4 µM (≈ 16 µg/mL)
CS(=O)(=O)Nc1ncn(-c2cc(F)c(COc3ccc(OS(=O)(=O)F)cc3)c(F)c2)n1 — resistance mutation frequency (4 x MIC): 4.41e-08 mutants per cell
NNC(=O)c1ccncc1 — MIC fold change (H37Rv inhA M103I mutant; concentration not given; relative to: wild type H37Rv): 1 fold
NC(=S)NN=Cc1ccc(OC(=O)CN2C(=O)CSC2=O)c(Br)c1 — MIC (Alamar blue; MDR 210): 72.3 to 167 µM (≈ 31.2 to 72.2 µg/mL)
CCCCCCC#Cc1cncc(-c2nnc(SCc3ccc([N+](=O)[O-])o3)n2C2CC2)c1 — IC50 (MABA; Erdman wild type): 0.04 µM
O=C(Cc1ccccc1)Nc1cc(-c2ccccn2)nc2nncn12 — IC90 (bacterial growth): > 100 µM
O=[N+]([O-])c1cn2c(n1)OC[C@@H](OCc1ccc(OC(F)(F)F)cc1)C2 — IC50 (MABA; Erdman wild type): 0.148 µM
FC(F)(F)c1ccc(CCNc2cc(-c3cccs3)nc3nncn23)cc1 — IC90 (bacterial growth): 3 µM
